# Results pooled from the literature.
SMILES,host,sample,route,dose,notes,AUC(0-inf)
CC[C@H](C)/C=C/C=C/C=C/C(O)=C/C(=O)C(Cl)(Cl)Cl,female C57BL/6 mouse,plasma,oral,25 mg/kg,,953 ng·h/mL
Cc1cc(NCC(=O)C(C)(C)C)c2nc(N3CCOC[C@H]3C)cc(=O)n2c1,C57BL/6 mouse,plasma,intraperitoneal,10 mg/kg,single dose,2340 ng·h/mL
N#CCCC1CCN(C(=S)c2ccc(-c3cc(Cl)ccc3Cl)o2)CC1,male BALB/c mouse,plasma,oral,10 mg/kg,,14.5 ng·h/mL
Cn1c2cc([S+](C)[O-])sc2c2cnn(Cc3cccc(N)c3)c(=O)c21 (stereo not drawn),male BALB/c mouse,plasma,oral,10 mg/kg,single dose,24400 ng·h/mL
Cc1cc(NC(=O)[C@H](O)c2cc(F)cc(F)c2)ccc1-c1cnc(N)c(C(=O)NC(C)C)c1,female nude mouse,plasma,oral,100 mg/kg,single dose,119000 ng·h/mL
COC(=O)C1=CNC=C(C(=O)OC)C1c1ccc(F)c(C(F)(F)F)c1,male C57BL/6 mouse,plasma,oral,50 mg/kg,,16400 ng·h/mL
CC[C@H](C)[C@@H]1NC(=O)[C@@](C)(NC(=O)[C@H](CCCNC(=N)N)NC(=O)[C@H](CC(C)C)NC(=O)[C@]2(C)CCCC=CCCC[C@](C)(NC(C)=O)C(=O)N[C@@H](CC(C)C)C(=O)N[C@@H](CCC(N)=O)C(=O)N2)CCCC=CCCC[C@@](C)(C(=O)N[C@@H](CC(C)C)C(=O)N[C@@H](Cc2ccc3ccccc3c2)C(=O)NCCC(=O)NCCC(N)=O)NC(=O)[C@H](CCCNC(=N)N)NC(=O)[C@H](CCC(N)=O)NC1=O,male BALB/c mouse,plasma,intravenous,30 mg/kg,,998000 ng·h/mL
Cn1ccc(-c2cc(Cl)c(Cl)c3[nH]c4c(c23)CN(C(=O)CO)CC4)n1,C57BL/6 mouse,blood,intravenous,0.5 mg/kg,,0.848 µM·h
C[C@@H](Nc1nc2c(cnn2C(C)(C)C)c(=O)n1Cc1cccc(F)c1)c1ccc(Cl)cc1,C57BL/6 mouse,plasma,oral,5 mg/kg,,1680 ng·h/mL
C/C(N)=N/C(=N\S(=O)(=O)c1ccc(C(F)(F)F)cc1)N1C[C@H](c2ccccc2)C(c2ccc(Cl)cc2)=N1,C57BL/6 mouse,liver,intravenous,10 mg/kg,,106000 ng·h/mL
COc1cnc2cccc(N3CCc4c(cc(Cn5ccnc5)cc4-c4cn(C)nc4C(F)(F)F)C3=O)c2c1,male CD-1 mouse,plasma,intraperitoneal,100 mg/kg,,178000 ng·h/mL
FC(F)(F)Oc1ccc2[nH]c(-c3ccc(OCCN4CCOCC4)cn3)nc2c1,mouse,plasma,intraperitoneal,100 mg/kg,,0.136 µM·h

# A few entries again:
SMILES,host,sample,route,dose,notes,AUC(0-inf)
FC(F)(F)Oc1ccc2[nH]c(-c3ccc(OCCN4CCOCC4)cn3)nc2c1,mouse,plasma,intraperitoneal,100 mg/kg,,0.136 µM·h
